# Results collected from several papers.
# Each line is one published result; not all experiments were run side by side.
# Organism: Streptococcus pneumoniae
SMILES,observed,technique,strain,medium,time,temperature,MIC
Cc1cc(C)c2nc3c(Br)cc(Br)c(O)c3nc2c1,,broth microdilution,6303,,16 h,37 °C,0.1 µM
CN[C@@H]1[C@H](O)[C@H](NC)[C@H]2O[C@]3(O)[C@H](O[C@@H]2[C@H]1O)O[C@H](C)C[C@H]3NC(=O)Cc1ccccn1,microbial growth,broth dilution,DAW27,,,,100 µg/mL
Oc1c(Br)cc(Br)c2nc3cc(Cl)ccc3nc12,,broth microdilution,6303,,,,0.1 µM
CN[C@@H]1[C@H](O)[C@H](NC)[C@H]2O[C@]3(O)[C@H](O[C@@H]2[C@H]1O)O[C@H](C)C[C@H]3NC(=O)CNC(C)(C)C,microbial growth,broth dilution,DAW27,,,,200 µg/mL
c1ccc2c(c1)nc(CNCC13CC4CC(CC(C4)C1)C3)n2CC1CCCCC1,,,ATCC 49619,,,,2 µg/mL
CC[C@H](C)[C@@H]1NC(=O)[C@H](CO)NC(=O)[C@H](CCCCN)NC(=O)[C@@H]2CSSC[C@@H](C(=O)N[C@@H](Cc3ccc(O)cc3)C(N)=O)NC(=O)[C@H](CCCCN)NC(=O)[C@@H]3CSSC[C@H](NC(=O)[C@H](CCCNC(=N)N)NC(=O)[C@H](CC(C)C)NC(=O)[C@H](CC(=O)O)NC(=O)[C@H](CC(=O)O)NC(=O)[C@H](CCC(=O)O)NC(=O)[C@H](CC(N)=O)NC(=O)[C@H](Cc4c[nH]c5ccccc45)NC(=O)C(C)(CC)NC(=O)CNC(=O)[C@H](CC(N)=O)NC(=O)[C@@H](NC(=O)CNC(=O)[C@H](Cc4ccccc4)NC(=O)CN)CSSC[C@H](NC(=O)[C@H](Cc4ccc(O)cc4)NC(=O)CNC(=O)CNC(=O)[C@H](CCCCN)NC(=O)[C@H](Cc4ccc(O)cc4)NC(=O)[C@H]4CCCN4C(=O)[C@@H]4CCCN4C1=O)C(=O)N[C@@H](C)C(=O)N[C@@H](CCCCN)C(=O)N1CCC[C@@H]1C(=O)NCC(=O)N[C@@H](Cc1ccccc1)C(=O)N[C@@H](C(C)C)C(=O)N3)C(=O)N[C@@H](Cc1c[nH]cn1)C(=O)N[C@@H](CC(N)=O)C(=O)N[C@@H](Cc1c[nH]cn1)C(=O)N2 (some centres unmarked),,broth microdilution,BS-444,,18 h,,1 µM
c1ccc(CCNC2CCCc3c2[nH]c2ccc(C4CCCCC4)cc32)cc1 (centres unmarked),,broth microdilution,serotype 4 T4,supplemented C+Y medium,,,1.3 µg/mL
CC[C@H](C)[C@@H]1NC(=O)[C@H](CO)NC(=O)C(C)(CCCCN)NC(=O)[C@@H]2CSSC[C@@H](C(=O)N[C@@H](Cc3ccc(O)cc3)C(N)=O)NC(=O)[C@H](CCCCN)NC(=O)[C@@H]3CSSC[C@H](NC(=O)[C@H](CCCNC(=N)N)NC(=O)C(C)(CC(C)C)NC(=O)[C@H](CC(=O)O)NC(=O)[C@H](CC(=O)O)NC(=O)[C@H](CCC(=O)O)NC(=O)[C@H](CC(N)=O)NC(=O)[C@H](Cc4c[nH]c5ccccc45)NC(=O)C(C)(CC)NC(=O)CNC(=O)[C@H](CC(N)=O)NC(=O)[C@@H](NC(=O)CNC(=O)[C@H](Cc4ccccc4)NC(=O)CN)CSSC[C@H](NC(=O)[C@H](Cc4ccc(O)cc4)NC(=O)CNC(=O)CNC(=O)[C@H](CCCCN)NC(=O)[C@H](Cc4ccc(O)cc4)NC(=O)[C@H]4CCCN4C(=O)[C@@H]4CCCN4C1=O)C(=O)N[C@@H](C)C(=O)N[C@@H](CCCCN)C(=O)N1CCC[C@@H]1C(=O)NCC(=O)N[C@@H](Cc1ccccc1)C(=O)N[C@@H](C(C)C)C(=O)N3)C(=O)N[C@@H](Cc1c[nH]cn1)C(=O)NC(C)(C)C(=O)N[C@@H](Cc1c[nH]cn1)C(=O)N2 (some centres unmarked),,broth microdilution,BS-444,,18 h,,2 µM
c1ccc2c(c1)nc(CNCC13CC4CC(CC(C4)C1)C3)n2CC1CC1,,,ATCC 49619,,,,2 µg/mL
CC[C@H](C)[C@@H]1NC(=O)[C@H](CO)NC(=O)C(C)(CCCCN)NC(=O)[C@@H]2CSSC[C@@H](C(=O)N[C@@H](Cc3ccc(O)cc3)C(N)=O)NC(=O)[C@H](CCCCN)NC(=O)[C@@H]3CSSC[C@H](NC(=O)[C@H](CCCNC(=N)N)NC(=O)C(C)(CC(C)C)NC(=O)[C@H](CC(=O)O)NC(=O)[C@H](CC(=O)O)NC(=O)[C@H](CCC(=O)O)NC(=O)[C@H](CC(N)=O)NC(=O)[C@H](Cc4c[nH]c5ccccc45)NC(=O)[C@@H]4CCCN4C(=O)CNC(=O)[C@H](CC(N)=O)NC(=O)[C@@H](NC(=O)CNC(=O)[C@H](Cc4ccccc4)NC(=O)CN)CSSC[C@H](NC(=O)[C@H](Cc4ccc(O)cc4)NC(=O)CNC(=O)CNC(=O)[C@H](CCCCN)NC(=O)[C@H](Cc4ccc(O)cc4)NC(=O)CNC(=O)[C@H](CCCCN)NC1=O)C(=O)N[C@@H](C)C(=O)N[C@@H](CCCCN)C(=O)NCC(=O)NCC(=O)N[C@@H](Cc1ccccc1)C(=O)N[C@@H](C(C)C)C(=O)N3)C(=O)N[C@@H](Cc1c[nH]cn1)C(=O)NC(C)(C)C(=O)N[C@@H](Cc1c[nH]cn1)C(=O)N2 (some centres unmarked),,broth microdilution,BS-444,,18 h,,0.5 µM
O=C(c1ccccc1O)c1[nH]c(Cl)c(Cl)c1-n1c(C(=O)c2ccccc2O)cc(Cl)c1Cl,microbial growth,,ATCC49619,,,,0.25 µM

# Repeated from above:
SMILES,observed,technique,strain,medium,time,temperature,MIC
Cc1cc(C)c2nc3c(Br)cc(Br)c(O)c3nc2c1,,broth microdilution,6303,,16 h,37 °C,0.1 µM
